# Measured values gathered from unrelated publications.
# Lines come from different studies, so protocols differ. ± marks the error that the study gave.
Compound,tested on,test,test system,conditions,scale,measurement,value
NNC(=O)c1ccncc1,Mycobacterium tuberculosis,,H37Rv inhA M103I mutant,concentration not given,reference: wild type H37Rv,MIC fold change,1 fold
NC(=S)NN=Cc1ccc(OC(=O)CN2C(=O)CSC2=O)cc1,Mycobacterium tuberculosis,Alamar blue,MDR 210,,,MIC,31.6 to 45.7 µM
CO[C@H]1/C=C/O[C@@]2(C)Oc3c(C)c(O)c4c(O)c(c(/C=N/N5CCN(C)CC5)c(O)c4c3C2=O)NC(=O)/C(C)=C\C=C\[C@H](C)[C@H](O)[C@@H](C)[C@@H](O)[C@@H](C)[C@H](OC(C)=O)[C@@H]1C,Mycobacterium tuberculosis,,,10 x MIC,,resistance mutation frequency,1.06e-07 mutants per cell
CCCCCCC#Cc1cncc(-c2nnc(SCc3cc([N+](=O)[O-])cc([N+](=O)[O-])c3)n2C)c1,Mycobacterium tuberculosis,MABA,Erdman wild type,,,IC50,0.31 µM
[Ca+2],Halyomorpha halys,"inward current, inhibitor, electrophysiology",,concentration not given,,inhibition,51.2%
CCCCCCC#Cc1cncc(-c2nnc(SCc3ccc(Cl)cc3)n2C)c1,Mycobacterium tuberculosis,MABA,Erdman wild type,,,IC50,6.03 µM
CS(=O)(=O)Nc1ncn(-c2cc(F)c(COc3ccc(OS(=O)(=O)F)cc3)c(F)c2)n1,Mycobacterium tuberculosis,,H37Rv pks13 knockdown,,reference: non-depleted strain,susceptibility fold increase,11 fold
NCCCNCCCCN(CCCN)/[N+]([O-])=N/O,"Sensor histidine kinase PdtaS (pdtaS, Mycobacterium tuberculosis, UniProt P9WGL4, C53A)",,,,,dimerization affinity,no effect
CCOc1cc(C=NNC(N)=S)ccc1OC(=O)CN1C(=O)CSC1=O,Mycobacterium tuberculosis,Alamar blue,MDR 210,,,MIC,80.7 µM
CC(CNc1cc(-c2ccccn2)nc2nncn12)c1ccccc1 (stereo not shown),Mycobacterium tuberculosis,bacterial growth,,,,IC90,> 100 µM
CC[C@@H](CO)NCCN[C@@H](CC)CO,Mycobacterium tuberculosis,,,4 x MIC,,resistance mutation frequency,3.38e-07 mutants per cell
NC(=S)NN=Cc1ccc(OC(=O)CN2C(=O)CSC2=O)c(Br)c1,Mycobacterium tuberculosis,Alamar blue,MDR 210,,,MIC,72.3 to 167 µM
Cc1ccc(-c2cc(NCCc3ccc(C(F)(F)F)cc3)n3cnnc3n2)o1,Mycobacterium tuberculosis,bacterial growth,,,,IC90,7.9 µM
NNC(=O)c1ccncc1,Mycobacterium tuberculosis,time-kill,H37Rv,"concentration not given, 120 h",,CFU reduction,4 log10 CFU
[H]/N=C(/N)N[C@H]1[C@H](O)[C@@H](O)[C@H](O[C@@H]2O[C@@H](C)[C@](O)(C=O)[C@H]2O[C@@H]2O[C@@H](CO)[C@H](O)[C@@H](O)[C@@H]2NC)[C@@H](N/C(N)=N\[H])[C@@H]1O,Mycobacterium tuberculosis,Alamar blue,MDR 210,,,MIC,1.72 µM
CCc1oc2ccccc2c1/C=C/C(=O)N(CCOC)Cc1nc2ccccc2c(=O)[nH]1,"inhA (Mycobacterium tuberculosis, UniProt P9WGR1)","enzyme activity, inhibitor",,pH 6.8,,IC50,14 ± 5 µM

# A few entries again:
Compound,tested on,test,test system,conditions,scale,measurement,value
NNC(=O)c1ccncc1,Mycobacterium tuberculosis,time-kill,H37Rv,"concentration not given, 120 h",,CFU reduction,4 log10 CFU
